# Experimental data from different studies.
# Lines come from different studies, so protocols differ. ± marks the error that the study gave.
# Sequence of UniProt P02769 (whole entry, looked up): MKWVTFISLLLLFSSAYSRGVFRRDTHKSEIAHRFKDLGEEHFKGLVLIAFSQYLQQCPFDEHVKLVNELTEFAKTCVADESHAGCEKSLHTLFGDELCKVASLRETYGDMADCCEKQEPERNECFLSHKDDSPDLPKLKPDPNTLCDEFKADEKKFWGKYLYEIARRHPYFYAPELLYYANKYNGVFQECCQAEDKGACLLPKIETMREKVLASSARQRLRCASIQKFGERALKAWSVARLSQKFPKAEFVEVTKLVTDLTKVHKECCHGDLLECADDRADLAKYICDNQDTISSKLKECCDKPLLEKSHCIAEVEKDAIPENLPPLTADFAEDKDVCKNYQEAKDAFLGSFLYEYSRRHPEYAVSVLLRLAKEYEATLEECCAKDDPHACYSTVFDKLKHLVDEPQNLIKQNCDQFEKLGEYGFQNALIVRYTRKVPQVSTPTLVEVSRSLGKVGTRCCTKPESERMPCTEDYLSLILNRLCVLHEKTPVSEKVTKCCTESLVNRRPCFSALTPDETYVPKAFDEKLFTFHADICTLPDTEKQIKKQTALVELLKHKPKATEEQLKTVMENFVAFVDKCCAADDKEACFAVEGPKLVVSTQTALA
Structure (SMILES),tested on,assay,test system,conditions,how to read,measurement,result
N=C(N)c1ccc(-c2ccc(-c3ccco3)o2)cc1,Salmonella typhimurium,liquid broth OD,TA1535,"100 µM, 15 h",baseline: growth,viability,40.8 ± 2.5%
Cc1cc(C#N)cc(C)c1Oc1nc(NC2CCN(Cc3ccc(Cl)cc3)CC2)nc2ccccc12,HIV-1,,"TZM-bl, NL4-3 wild type",,baseline: CC50 over EC50,selectivity index,> 8.66
O=C(O)[C@@H]1C[C@@H](O)CN1C(=O)[C@@H]1CCCN1,iron(III) ion,"complex formation, Van't Hoff plot",aqueous 0.15 M NaCl,MAH−2 complex species,,ΔH,123 kcal/mol
Cc1cc(/C=C/C#N)cc(C)c1Oc1nc(NC2CCN(Cc3ccc(S(N)(=O)=O)cc3)CC2)nc2ccccc12,HIV-1,,"TZM-bl, NL4-3 wild type",,baseline: CC50 over EC50,selectivity index,2560
[64Cu+2].c1cnc(CNCc2ccc(CN3CCCN4CCNCCCN(CC4)CC3)cc2)nc1,CXCR4,,"NOD/SCID mouse, U87 and U87-stb-CXCR4 xenografts, liver","iv, 90 min, ex vivo, added: AMD3465 25 mg/kg sc before tracer",,tissue uptake,34.9 ± 1.22 %ID/g
N#Cc1ccc(-c2ccc(-c3cccs3)o2)nc1,Salmonella typhimurium,liquid broth OD,TA1535,"50 µM, 15 h",baseline: growth,viability,127 ± 5.4%
O=C(O[C@@H]1Cc2c(O)cc(O)cc2O[C@@H]1c1cc(O)c(O)c(O)c1)c1cc(O)c(O)c(O)c1,"Albumin (ALB, Bos taurus, UniProt P02769)","binding, fluorescence quenching",,"25 µM, 1 h, pH 5.0, added: BSA 3 µM",baseline: untreated,remaining fluorescence,33.4%
Cc1cc(C#N)cc(C)c1Oc1nc(NC2CCN(Cc3cccc(C(N)=O)c3)CC2)nc2ccccc12,HIV-1,,"TZM-bl, NL4-3 wild type",,baseline: CC50 over EC50,selectivity index,> 28.9
[64Cu+2].c1ccc(CNCc2ccc(CN3CCCN4CCNCCCN(CC4)CC3)cc2)nc1,CXCR4,,"NOD/SCID mouse, U87 and U87-stb-CXCR4 xenografts, spleen","iv, 30 min, ex vivo",,tissue uptake,21.1 ± 5.34 %ID/g
[99Tc+].[C-]#[N+]CC(C)(C)OC.[C-]#[N+]CC(C)(C)OC.[C-]#[N+]CC(C)(C)OC.[C-]#[N+]CC(C)(C)OC.[C-]#[N+]CC(C)(C)OC.[C-]#[N+]CC(C)(C)OC,human sandwich-cultured hepatocytes,,,,baseline: total efflux,basolateral efflux fraction,71.7%
C[C@H](NP(=O)(O)OC[C@H]1O[C@@](C#N)(c2ccc3c(N)ncnn23)[C@H](O)[C@@H]1O)C(=O)O,primary human hepatocytes,item: total DNA content,,3 days,,CC50,> 100 µM
N#Cc1ccc(-c2ccc(-c3ccco3)o2)nc1,Salmonella typhimurium,liquid broth OD,TA1535,"25 µM, 15 h",baseline: growth,viability,125 ± 10.1%
CC(C)CCC[C@@H](C)[C@H]1CCC([C@@H]2CC[C@H]3C[C@@H](O)CC[C@]3(C)[C@@H]2O)[C@]1(C)CC(=O)O (stereo partly drawn),HEK293T,CellTiter-Blue,,10 µM,,viability,> 100%
N#Cc1ccc(-c2ccc(-c3cccs3)s2)cc1,Salmonella typhimurium,liquid broth OD,TA1535,"25 µM, 15 h",baseline: growth,viability,110 ± 5.6%
Cc1cc(/C=C/C#N)cc(C)c1Oc1nc(NC2CCN(Cc3ccc(C(N)=O)cc3)CC2)nc2ccccc12,HIV-1,,"TZM-bl, NL4-3 wild type",,baseline: CC50 over EC50,selectivity index,8660
N#Cc1ccc(-c2ccc(-c3cccs3)o2)cc1,Salmonella typhimurium,liquid broth OD,TA1535,"12.5 µM, 15 h",baseline: growth,viability,101 ± 6.3%
COc1cc2nc(NC3CCN(Cc4ccc(S(C)(=O)=O)cc4)CC3)nc(Oc3c(C)cc(C#N)cc3C)c2cc1OC,HIV-1,,"TZM-bl, NL4-3 wild type",,baseline: CC50 over EC50,selectivity index,1150
Cn1c(=O)oc2ccc(-c3ccc(CC(C#N)NC(=O)C4CNCCCO4)c(F)c3)cc21 (stereo not drawn),,,"human, plasma","80 mg, single dose, fasted, mean",,half-life,18.1 h
C=CCC1=C[C@@]2(C[C@H](O)C(C)(C)O2)C2=C(C[C@H]3C[C@H]4C(=C)CCCC(C)(C)[C@@H]4C[C@@]3(C)O2)C1=O,coxsackievirus B3,cytopathic effect,"Vero, Nancy",,baseline: CC50 over IC50,selectivity index,4.3
Cc1cc(C#N)cc(C)c1Oc1nc(NC2CCN(Cc3cccc(Br)c3)CC2)nc2ccccc12,HIV-1,,"TZM-bl, NL4-3 wild type",,baseline: CC50 over EC50,selectivity index,> 6.06
N#Cc1ccc(-c2ccc(-c3ccco3)o2)cc1,Salmonella typhimurium,liquid broth OD,TA1535,"12.5 µM, 15 h",baseline: growth,viability,100 ± 10.1%
CC(=O)N[C@H](C(=O)N[C@H](C(=O)N[C@@H](CCCNC(=N)N)C(=O)N1Cc2ccccc2C[C@H]1C(=O)N[C@@H](Cc1ccccc1)C(N)=O)C1CCCCC1)C(C)C,human PBMC,"Bio-Plex multiplex, item: VEGF",,"500 µg/mL, 24 h",,cytokine level,125 ± 58.3 pg/mL
C=CCC1=C[C@]2(C[C@@H](O)C(C)(C)O2)C2=C(C[C@H]3C[C@H]4[C@H](C[C@@]3(C)O2)C(=C)CCCC4(C)C)C1=O,coxsackievirus B3,cytopathic effect,"Vero, Nancy",,baseline: CC50 over IC50,selectivity index,2.1
Cc1cc(C#N)cc(C)c1Oc1nc(NC2CCN(Cc3ccc(C(N)=O)cc3)CC2)nc2ncccc12,HIV-1,,"TZM-bl, NL4-3 wild type",,baseline: CC50 over EC50,selectivity index,40800
N#C[C@@H]1CCCN1C(=O)CNC(=O)c1ccnc2ccc(OCCCN3CCN(C(=O)CCc4ccc(O)c(CN5CCN6CC(=O)[O][Al-]([18F])([O]C(=O)C5)[O]c5ccc(CCC(=O)N7CCN(CCCOc8ccc9nccc(C(=O)NCC(=O)N%10CCC[C@H]%10C#N)c9c8)CC7)cc5C6)c4)CC3)cc12 (stereo partly drawn),U-87 MG tumour model,,"host not given, tumour","2 h, tumour-bearing",,tracer uptake,40.3 %ID/g
Cc1cc(C#N)cc(C)c1Oc1nc(NC2CCN(Cc3ccc(S(C)(=O)=O)cc3)CC2)nc2ncccc12,HIV-1,,"TZM-bl, NL4-3 wild type",,baseline: CC50 over EC50,selectivity index,23400
N=C(N)c1ccc(-c2ccc(-c3cccs3)o2)cc1,Salmonella typhimurium,liquid broth OD,TA1535,"50 µM, 15 h",baseline: growth,viability,103 ± 5.2%
N#Cc1cc(C(=O)OCC[18F])c(C(F)(F)F)nc1N1CCC(C(=O)NS(=O)(=O)c2ccc(Cl)s2)CC1,bEnd.3 monolayer transwell,,,concentration not given,,permeability,7.5%
N=C(N)c1ccc(-c2ccc(-c3ccco3)o2)nc1,Salmonella typhimurium,liquid broth OD,TA1535,"12.5 µM, 15 h",baseline: growth,viability,124 ± 7.7%
O=C(O)CCC(NP(=O)(O)OCCC[C@@H](NC(=O)CC[C@H](NC(=O)CCCCCNC(=O)c1ccc([18F])cc1)C(=O)O)C(=O)O)C(=O)O (stereo partly drawn),CWR22Rv1 tumour model,,"host not given, liver","1 h, tumour-bearing",,tracer uptake,0.451 %ID/g

# For quick reference, copied from above:
Structure (SMILES),tested on,assay,test system,conditions,how to read,measurement,result
N#Cc1ccc(-c2ccc(-c3cccs3)o2)nc1,Salmonella typhimurium,liquid broth OD,TA1535,"50 µM, 15 h",baseline: growth,viability,127 ± 5.4%
N=C(N)c1ccc(-c2ccc(-c3cccs3)o2)cc1,Salmonella typhimurium,liquid broth OD,TA1535,"50 µM, 15 h",baseline: growth,viability,103 ± 5.2%
Cc1cc(C#N)cc(C)c1Oc1nc(NC2CCN(Cc3ccc(Cl)cc3)CC2)nc2ccccc12,HIV-1,,"TZM-bl, NL4-3 wild type",,baseline: CC50 over EC50,selectivity index,> 8.66
